Published values of several laboratories.
Each line is one published result; not all experiments were run side by side. ± gives the spread as reported.
RET: Proto-oncogene tyrosine-protein kinase receptor Ret (RET, Homo sapiens, UniProt P07949)
PSMB5: Proteasome Macropain subunit MB1 (PSMB5, Homo sapiens, UniProt P28074)
Sequence of UniProt P28074 (whole entry, looked up): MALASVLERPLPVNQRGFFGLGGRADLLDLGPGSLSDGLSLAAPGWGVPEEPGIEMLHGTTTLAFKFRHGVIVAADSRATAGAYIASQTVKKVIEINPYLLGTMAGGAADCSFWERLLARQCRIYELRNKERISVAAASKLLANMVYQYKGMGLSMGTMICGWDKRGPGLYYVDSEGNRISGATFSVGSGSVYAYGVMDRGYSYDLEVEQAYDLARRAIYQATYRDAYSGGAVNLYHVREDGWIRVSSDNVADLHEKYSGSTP
Protein AF-9 with DOT1L: Protein AF-9, with DOT1L (Homo sapiens, UniProt P42568)
Sequence of UniProt P42568 (whole entry, looked up): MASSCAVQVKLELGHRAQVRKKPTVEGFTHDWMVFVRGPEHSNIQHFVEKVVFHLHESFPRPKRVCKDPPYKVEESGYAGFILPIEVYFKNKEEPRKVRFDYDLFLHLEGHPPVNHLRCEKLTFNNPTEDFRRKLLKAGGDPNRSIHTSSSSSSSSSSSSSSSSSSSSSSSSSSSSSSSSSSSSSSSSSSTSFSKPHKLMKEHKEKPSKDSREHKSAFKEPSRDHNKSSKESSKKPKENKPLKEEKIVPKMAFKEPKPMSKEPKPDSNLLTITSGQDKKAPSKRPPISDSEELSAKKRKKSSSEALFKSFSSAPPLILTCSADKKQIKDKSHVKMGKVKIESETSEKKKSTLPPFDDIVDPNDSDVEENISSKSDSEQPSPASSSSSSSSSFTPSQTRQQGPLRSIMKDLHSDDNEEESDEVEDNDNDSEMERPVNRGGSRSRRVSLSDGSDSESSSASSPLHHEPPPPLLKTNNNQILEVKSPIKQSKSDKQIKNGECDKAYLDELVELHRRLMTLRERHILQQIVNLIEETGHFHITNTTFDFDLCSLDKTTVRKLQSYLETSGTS
AR: Androgen receptor (AR, Homo sapiens, UniProt P10275)
Sequence of UniProt P10275 (whole entry, looked up): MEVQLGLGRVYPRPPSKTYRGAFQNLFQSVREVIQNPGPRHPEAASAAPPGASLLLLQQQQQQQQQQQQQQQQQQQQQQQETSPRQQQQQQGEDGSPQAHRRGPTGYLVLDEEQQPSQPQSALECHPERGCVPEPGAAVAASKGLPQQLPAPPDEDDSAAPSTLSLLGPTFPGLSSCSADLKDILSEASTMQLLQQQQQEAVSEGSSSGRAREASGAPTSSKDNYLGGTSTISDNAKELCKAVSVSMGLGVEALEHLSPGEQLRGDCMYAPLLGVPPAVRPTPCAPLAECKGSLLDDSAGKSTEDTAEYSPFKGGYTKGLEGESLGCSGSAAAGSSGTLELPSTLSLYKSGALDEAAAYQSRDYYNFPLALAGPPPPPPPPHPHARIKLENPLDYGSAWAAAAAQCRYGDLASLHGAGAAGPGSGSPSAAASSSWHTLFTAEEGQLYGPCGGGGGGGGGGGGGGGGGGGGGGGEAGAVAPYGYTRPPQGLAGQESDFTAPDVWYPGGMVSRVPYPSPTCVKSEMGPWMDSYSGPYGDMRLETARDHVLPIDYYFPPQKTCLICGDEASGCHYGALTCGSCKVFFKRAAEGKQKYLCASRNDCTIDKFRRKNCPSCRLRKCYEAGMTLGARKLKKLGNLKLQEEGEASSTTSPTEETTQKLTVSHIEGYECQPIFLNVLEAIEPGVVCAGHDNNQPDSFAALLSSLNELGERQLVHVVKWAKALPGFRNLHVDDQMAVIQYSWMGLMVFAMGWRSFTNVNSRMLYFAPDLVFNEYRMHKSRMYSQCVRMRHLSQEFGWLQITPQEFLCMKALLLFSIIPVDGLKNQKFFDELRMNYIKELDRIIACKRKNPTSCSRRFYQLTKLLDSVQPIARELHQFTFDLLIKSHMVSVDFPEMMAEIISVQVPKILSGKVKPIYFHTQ
CYP2E1: Cytochrome P450 2E1 (CYP2E1, Homo sapiens, UniProt P05181)
Sequence of UniProt P05181 (whole entry, looked up): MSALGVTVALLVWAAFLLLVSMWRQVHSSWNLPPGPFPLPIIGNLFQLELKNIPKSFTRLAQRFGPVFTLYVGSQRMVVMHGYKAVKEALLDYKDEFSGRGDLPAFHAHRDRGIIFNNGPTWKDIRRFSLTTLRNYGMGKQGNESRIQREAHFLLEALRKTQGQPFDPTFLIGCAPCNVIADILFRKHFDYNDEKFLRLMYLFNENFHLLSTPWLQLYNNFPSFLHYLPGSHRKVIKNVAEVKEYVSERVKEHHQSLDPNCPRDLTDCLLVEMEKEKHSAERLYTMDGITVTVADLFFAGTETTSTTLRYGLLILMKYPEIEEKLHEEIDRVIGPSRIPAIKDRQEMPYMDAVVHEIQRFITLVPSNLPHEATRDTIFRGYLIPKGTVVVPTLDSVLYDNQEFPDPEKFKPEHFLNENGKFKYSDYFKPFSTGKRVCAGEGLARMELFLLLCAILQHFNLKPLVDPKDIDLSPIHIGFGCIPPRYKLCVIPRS
Dihydrofolate reductase type 2: Dihydrofolate reductase type 2 (Escherichia coli, UniProt P00383)
Sequence of UniProt P00383 (whole entry, looked up): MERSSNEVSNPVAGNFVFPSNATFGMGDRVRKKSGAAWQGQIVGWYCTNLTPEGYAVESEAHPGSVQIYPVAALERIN
Proteasome component C5/PSMB5: Proteasome component C5/PSMB5 (Homo sapiens, UniProt P20618+P28074)
Sequence of UniProt P20618 (whole entry, looked up): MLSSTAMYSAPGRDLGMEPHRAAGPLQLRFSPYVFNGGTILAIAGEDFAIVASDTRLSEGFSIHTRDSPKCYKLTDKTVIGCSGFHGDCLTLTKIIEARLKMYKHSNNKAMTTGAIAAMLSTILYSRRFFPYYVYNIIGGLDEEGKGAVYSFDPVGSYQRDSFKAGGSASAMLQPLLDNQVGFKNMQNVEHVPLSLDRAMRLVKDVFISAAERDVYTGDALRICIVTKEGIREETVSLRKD
CSNK1D: Casein kinase I isoform delta (CSNK1D, Homo sapiens, UniProt P48730)
Sequence of UniProt P48730 (whole entry, looked up): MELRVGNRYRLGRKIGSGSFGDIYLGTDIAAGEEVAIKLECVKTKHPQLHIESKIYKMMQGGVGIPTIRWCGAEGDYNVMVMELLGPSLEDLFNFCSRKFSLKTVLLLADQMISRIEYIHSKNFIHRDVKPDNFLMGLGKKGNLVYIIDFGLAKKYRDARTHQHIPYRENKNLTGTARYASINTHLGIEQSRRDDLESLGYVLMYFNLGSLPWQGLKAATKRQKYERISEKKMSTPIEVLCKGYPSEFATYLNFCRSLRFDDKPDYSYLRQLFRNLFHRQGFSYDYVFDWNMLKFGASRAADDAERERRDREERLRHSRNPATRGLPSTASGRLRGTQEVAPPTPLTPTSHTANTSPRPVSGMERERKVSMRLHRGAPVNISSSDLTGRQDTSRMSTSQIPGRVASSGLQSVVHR
Protein AF-9 with AF4: Protein AF-9, with AF4 (Homo sapiens, UniProt P42568)
PLG: Plasminogen (PLG, Homo sapiens, UniProt P00747)
Sequence of UniProt P37231 (whole entry, looked up): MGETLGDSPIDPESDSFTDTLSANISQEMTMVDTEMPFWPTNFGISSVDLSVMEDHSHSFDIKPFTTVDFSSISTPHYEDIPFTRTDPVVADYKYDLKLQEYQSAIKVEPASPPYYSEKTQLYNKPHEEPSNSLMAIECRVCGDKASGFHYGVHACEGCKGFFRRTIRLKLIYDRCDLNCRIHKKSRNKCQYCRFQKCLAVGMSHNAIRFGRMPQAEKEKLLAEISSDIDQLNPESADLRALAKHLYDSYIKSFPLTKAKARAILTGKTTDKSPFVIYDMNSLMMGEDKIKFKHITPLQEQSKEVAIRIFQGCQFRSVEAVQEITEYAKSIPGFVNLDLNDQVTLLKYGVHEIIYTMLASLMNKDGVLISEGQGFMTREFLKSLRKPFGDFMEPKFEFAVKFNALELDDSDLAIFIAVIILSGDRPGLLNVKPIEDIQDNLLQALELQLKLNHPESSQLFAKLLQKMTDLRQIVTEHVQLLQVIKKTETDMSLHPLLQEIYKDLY
Sequence of UniProt P00747 (whole entry, looked up): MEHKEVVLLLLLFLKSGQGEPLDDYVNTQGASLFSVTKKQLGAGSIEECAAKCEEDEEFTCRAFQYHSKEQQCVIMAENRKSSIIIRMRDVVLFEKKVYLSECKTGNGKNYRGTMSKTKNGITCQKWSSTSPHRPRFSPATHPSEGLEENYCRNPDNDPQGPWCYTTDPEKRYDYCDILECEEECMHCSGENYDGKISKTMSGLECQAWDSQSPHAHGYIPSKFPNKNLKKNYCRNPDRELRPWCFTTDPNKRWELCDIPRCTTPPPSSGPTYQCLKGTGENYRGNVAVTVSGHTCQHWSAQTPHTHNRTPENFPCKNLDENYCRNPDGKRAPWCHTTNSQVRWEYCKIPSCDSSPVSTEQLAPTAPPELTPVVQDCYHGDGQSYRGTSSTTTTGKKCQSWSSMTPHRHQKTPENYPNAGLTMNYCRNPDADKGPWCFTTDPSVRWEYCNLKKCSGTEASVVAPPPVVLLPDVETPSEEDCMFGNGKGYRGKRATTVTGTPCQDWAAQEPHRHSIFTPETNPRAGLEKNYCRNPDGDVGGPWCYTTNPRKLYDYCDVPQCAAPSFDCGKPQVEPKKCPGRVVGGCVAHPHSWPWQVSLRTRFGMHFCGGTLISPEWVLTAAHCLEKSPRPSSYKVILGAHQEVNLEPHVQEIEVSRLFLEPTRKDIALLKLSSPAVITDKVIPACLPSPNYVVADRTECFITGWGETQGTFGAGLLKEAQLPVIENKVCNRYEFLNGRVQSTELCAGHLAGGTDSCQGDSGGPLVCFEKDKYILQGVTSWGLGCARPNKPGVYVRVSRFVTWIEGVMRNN
Sequence of UniProt P07550 (whole entry, looked up): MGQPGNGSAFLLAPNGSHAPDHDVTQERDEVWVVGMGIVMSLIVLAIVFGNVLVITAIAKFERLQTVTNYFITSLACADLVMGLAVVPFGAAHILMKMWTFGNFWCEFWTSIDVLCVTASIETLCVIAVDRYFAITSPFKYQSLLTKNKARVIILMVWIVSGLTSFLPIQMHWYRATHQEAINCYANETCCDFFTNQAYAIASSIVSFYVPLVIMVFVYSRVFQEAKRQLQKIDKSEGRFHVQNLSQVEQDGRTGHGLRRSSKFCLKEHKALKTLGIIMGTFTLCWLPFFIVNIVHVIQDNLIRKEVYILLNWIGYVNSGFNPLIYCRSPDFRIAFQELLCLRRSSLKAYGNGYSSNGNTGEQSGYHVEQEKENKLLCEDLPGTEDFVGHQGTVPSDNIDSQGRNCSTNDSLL
Sequence of UniProt P28076 (whole entry, looked up): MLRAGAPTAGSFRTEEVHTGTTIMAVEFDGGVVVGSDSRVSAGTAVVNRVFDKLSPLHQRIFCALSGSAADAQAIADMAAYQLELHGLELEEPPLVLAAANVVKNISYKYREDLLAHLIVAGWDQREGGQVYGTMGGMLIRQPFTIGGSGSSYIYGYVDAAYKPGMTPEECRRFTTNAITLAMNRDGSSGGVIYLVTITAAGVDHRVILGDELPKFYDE

Compound	target	test	system	setting	how to read	IC50
Nc1nc2c(ncn2[C@@H]2O[C@H](COP(=O)(O)OP(=O)(O)NP(=O)(O)O)[C@@H](O)[C@H]2O)c(=O)[nH]1	mRNA 5′-triphosphatase (Plasmodium falciparum, UniProt C0H484)	GTP hydrolysis, inhibitor, fluorescent phosphate sensor	–	–	–	15.7 µM
COc1ccc(NC(=O)Nc2ccccc2-c2nc(-c3ccoc3)n[nH]2)cc1	RET	kinase activity, inhibitor	–	replicate two, added: 1 µM ATP, poly(Glu,Tyr)	–	17.4 µM
CC(C)C[C@H](NC(=O)c1cc(Cl)ccc1Cl)C(=O)N[C@@H](CC(C)C)C(=O)N[C@H](/C=C/S(C)(=O)=O)Cc1ccc(CN)cc1	PSMB5	competitive ABPP	Raji cell lysate	–	–	5.51 µM
COCc1nn(Cc2ccc(Cn3ccccc3=O)cc2)cc1C(=O)NCc1c(Cl)ccc(OC)c1F	Prothrombin (F2, Homo sapiens, UniProt P00734)	–	–	–	–	> 40 µM
c1cc(N2CCCC2)ccc1-c1ccc2ncc(OCC3CCNCC3)nc2c1	Protein AF-9 with DOT1L	DOT1L binding, AlphaLISA	–	–	–	3.7 µM
CCOC(=O)c1ccc(NC(=O)c2cc3cc(S(N)(=O)=O)ccc3oc2=O)cc1	alpha-glucosidase	inhibitor, colorimetric	–	–	–	2440 µg/mL
C[C@H](CCC(=O)O)[C@H]1CC[C@H]2[C@@H]3CC=C4CC(=O)CC[C@]4(C)[C@H]3CC[C@]12C	AR	reporter gene, antagonist, luciferase reporter	–	added: DHT 15 pM	–	0.443 µM
CCc1oc2ccccc2c1C(=O)c1ccc(O)cc1	CYP2E1	p-nitrophenol hydroxylation, inhibitor	baculosomes	10 min, with additive 100 µM	–	74 µM
c1cc(N2CCCCC2)ccc1-c1ccc2ncc(OCC3CCNCC3)nc2c1	Protein AF-9 with DOT1L	DOT1L binding, AlphaLISA	–	–	–	7.4 µM
CN1CCN(CCCOc2ccc(-c3nc4ccc(C(=O)NCc5ccccc5)cc4[nH]3)cc2)CC1	Dihydrofolate reductase type 2	enzyme activity	–	pH 7	–	> 500 µM
COc1ccc2c(=O)[nH]c3c(nnn3Cc3ccc(C)cc3)c2c1	PARP10 (Homo sapiens, UniProt Q53GL7)	–	–	–	–	0.0112 µM
CC(C)C[C@H](NC(=O)[C@H](CCc1ccccc1)NC(=O)CN1CCOCC1)C(=O)N[C@@H](Cc1ccccc1)C(=O)NN(CC(C)C)C(=O)C=O	Proteasome component C5/PSMB5	β5 chymotrypsin-like activity, inhibitor	–	added: Suc-LLVY-AMC 100 µM	–	2.6 ± 0.8 µM
CC1(C)NC(=O)N(c2ccc(F)c(Br)c2)C1=O	AR	reporter gene, antagonist	LAPC4	24 h, added: DHT 10 nM	–	9.7 µM
Fc1ccc(-c2nc(-c3ccc4ccccc4c3Br)[nH]c2-c2ccncc2)cc1	CSNK1D	inhibitor	–	–	–	0.0335 ± 0.0025 µM
CC(C)N(CCC(=O)c1ccc2ccccc2c1)Cc1ccccc1	TGM2 (Homo sapiens, UniProt P21980)	enzyme activity, inhibitor, BP incorporation	–	added: no DTT, no Triton	–	0.01 ± 0.01 µM
COc1nc(-c2cccc(-c3ccccc3)c2C)ccc1CNCCNC(=O)CCCCCCCCCCC(=O)N1CCN(CCNC(=O)c2cc3c(=O)n4cccc(C)c4nc3n(CCc3cccs3)c2=N)CC1	CD274 (Homo sapiens, UniProt Q9NZQ7)	binding, inhibitor, HTRF	–	–	–	0.357 µM
COc1ccc(F)cc1C(=O)NCc1ccc(-c2nn([C@@H](C)C(F)(F)F)c(N)c2C(N)=O)cc1	TXK (Homo sapiens, UniProt P42681)	target engagement, NanoBRET tracer displacement	HEK293	–	above top tested dose	> 5 µM
Oc1c(-c2nc(-c3ccc(F)cc3)c(-c3ccncc3)[nH]2)ccc2ccccc12	CSNK1D	inhibitor	–	–	–	2.98 ± 0.193 µM
c1cc(N2CCCCC2)ccc1Nc1cc2ncc(OCC3CCNCC3)nc2cc1-c1ccc(N2CCCCC2)cc1	Protein AF-9 with DOT1L	DOT1L binding, AlphaLISA	–	–	–	0.85 ± 0.11 µM
COCC(=O)N1CCC[C@H](C(=O)NCc2nc(-c3ccccc3)cs2)C1	uncharacterized protein (Plasmodium falciparum, UniProt A0A5K1K7U1+Q8I261+Q8IJT1)	Suc-LLVY-AMC	–	–	–	0.13 ± 0.026 µM
O=C(Nc1ccccc1)c1cc([N+](=O)[O-])ccc1Cl	Peroxisome proliferator-activated receptor gamma, ligand-binding domain (PPARG, Homo sapiens, UniProt P37231)	binding, scintillation proximity	His-tagged ligand-binding domain	added: [3H]rosiglitazone	–	0.145 µM
CCc1oc2ccccc2c1C(=O)c1cc(Br)c(O)c(Br)c1	CYP2E1	p-nitrophenol hydroxylation	baculosomes	10 min	–	0.03 µM
CCn1c(-c2nc3cc(C(=O)N4CCC[C@@H](N)C4)cc(OC)c3n2C)cc2cccnc21	ADRB2 (Homo sapiens, UniProt P07550)	antagonist, TR-FRET	–	–	–	> 31.6 µM
Oc1ccc(Cl)cc1Nc1nc(NCC2CCCO2)c2ccccc2n1 (stereo not shown)	GBA1 (Homo sapiens, UniProt P04062, R534H)	enzyme activity, inhibitor	–	20 min, room temperature, added: 4MU-β-glucoside 800 µM	–	0.16 µM
COC(=O)c1ccc2nc(-c3ccc(OCCCOc4ccc(-c5nc6ccc(C(=O)OC)cc6[nH]5)cc4Br)c(Br)c3)[nH]c2c1	Dihydrofolate reductase type 2	enzyme activity	–	pH 7	–	> 30 µM
Fc1ccc(-c2c(-c3ccncc3)ncn2-c2ccc(-c3ccccc3)cc2)cc1	CSNK1D	inhibitor	–	–	–	0.655 ± 0.0709 µM

Compound	target	test	system	setting	how to read	IC50
c1cc(N2CCCC2)ccc1-c1cc2ncc(OCC3CCNCC3)nc2cc1-c1ccc(N2CCCC2)cc1	Protein AF-9 with AF4	AlphaScreen	–	–	–	0.6 ± 0.16 µM
Fc1ccc(-c2c(-c3ccncc3)ncn2-c2ccc3ccccc3c2)cc1	CSNK1D	inhibitor	–	–	–	> 5 µM
Cc1cnn(Cc2ccc(Cn3cc(C(=O)NCc4ccc(CN)cc4)cn3)cc2)c1	PLG	–	–	–	–	27 µM
O=c1nc(SCc2cc(F)cc(C(F)(F)F)c2)nc(SCc2ccc3nc(Cl)ccc3c2)[nH]1	TOP2A (Homo sapiens, UniProt P11388)	ATPase activity, ATP-competitive inhibitor	–	added: ATP 0.5 mM	–	25.7 µM
CC1CC(C)CN(c2ccc(C=NNc3nc(-c4ccc(F)cc4)cs3)cc2)C1 (stereo not shown)	alpha-glucosidase	enzyme activity, inhibitor	–	added: p-nitrophenyl-alpha-D-glucopyranoside	–	16.5 µM
CN1CCN(c2ccc(Nc3ncc4cc(C#N)c(=O)n(C5CCCC5)c4n3)cc2)CC1	TAOK3 (Homo sapiens, UniProt Q9H2K8)	–	–	–	–	2.29 µM
COc1ccnc(CNC(=O)c2cnn(Cc3ccc(Cn4ccccc4=O)cc3)c2)c1F	PLG	–	–	–	–	> 40 µM
COc1ccc(-c2csc(NN=Cc3ccc(N4CC(C)CC(C)C4)cc3)n2)cc1 (stereo not shown)	alpha-glucosidase	enzyme activity, inhibitor	–	added: p-nitrophenyl-alpha-D-glucopyranoside	–	30.2 µM
Cc1ncc(C(=O)N[C@@H](CC2CCC3CCCCC3C2)C(=O)N[C@@H](CC(C)C)C(=O)N[C@H](/C=C/S(C)(=O)=O)Cc2ccc(CN)cc2)s1 (stereo partly shown)	PSMB5	competitive ABPP	Raji cell lysate	–	–	1.94 µM
[Fe+2].c1ccc(CN(Cc2ccccn2)C(c2ccccn2)c2ccccn2)nc1	PSMB5	chymotrypsin-like activity, inhibitor, purified 20S proteasome	–	30 min, pH 7.4, 37 °C, added: 20 µM Suc-LLVY-AMC	–	9.2 µM
COc1cc(/C=N/n2c(C)nc3ccc(Br)cc3c2=O)ccc1OCc1ccc(Cl)cc1	Phospholipase A2, membrane associated (Homo sapiens, UniProt P14555)	enzyme activity, inhibitor, colorimetric	–	–	–	49.7 ± 2.12 µM
Fc1ccc(-c2nc(-c3ccccc3Cl)[nH]c2-c2ccncc2)cc1	CSNK1D	inhibitor	–	–	–	0.0089 ± 0.0048 µM
COC1CCC(C[C@H](NC(=O)[C@H](CC(C)C)NC(=O)c2cnc(C)s2)C(=O)N[C@H](/C=C/S(C)(=O)=O)Cc2ccc(CN)cc2)CC1 (stereo partly shown)	PSMB5	competitive ABPP	Raji cell lysate	–	–	> 10 µM
CC(C)C[C@H](NC(=O)OCc1ccccc1)C(=O)N[C@@H](CC(C)C)C(=O)NN(CC(C)C)C(=O)/C=C/C(=O)NCc1ccccc1	Proteasome component C5/PSMB5	chymotrypsin-like activity, inhibitor	human 20S proteasome	added: Suc-LLVY-AMC 100 µM	–	0.9 ± 0.2 µM
O=C(Nc1ccn(Cc2ccc(O)cc2C(F)(F)F)n1)c1c(F)cccc1F	P2X purinoceptor 7 (P2rx7, Rattus norvegicus, UniProt Q64663)	antagonist	–	–	–	> 10 µM
O=C1C=Cc2c(c(-c3ccsc3)cn2S(=O)(=O)c2ccccc2)C1=O	ELAV-like protein 1, RRM1-RRM2 domains (ELAVL1, Homo sapiens, UniProt Q15717)	HuR-RNA complex formation, REMSA	–	added: 1 nM labelled RNA probe	–	6.62 µM
O=C(NCCO)c1ccc2nc(-c3ccc(OCCC(O)COc4ccc(-c5nc6ccc(C(=O)NCCO)cc6[nH]5)cc4Br)c(Br)c3)[nH]c2c1 (stereo not shown)	Dihydrofolate reductase type 2	enzyme activity	–	pH 7	–	> 50 µM
COc1cc(NC(=O)Nc2ccc(C)c(F)c2)cc2sc(NC(=O)c3ccccc3)nc12	RET	kinase activity, inhibitor	–	replicate one, added: 1 µM ATP, poly(Glu,Tyr)	–	5.16 µM
CC(C)C[C@H](NC(=O)[C@H](CCc1ccccc1)NC(=O)CN1CCOCC1)C(=O)N[C@@H](Cc1ccccc1)C(=O)N[C@@H](CC(C)C)C(=O)[C@@]1(C)CO1	Proteasome subunit beta type-9 (Mus musculus, UniProt P28076)	proteasome subunit activity	Ba/F3 BCR-ABL1 T315I	1 h pulse	–	0.243 ± 0.0531 µM
CC[C@@H]1[C@H](F)C(=O)N[C@@H]1COc1nccc2cc(C(N)=O)c(OC)cc12	PHKG2 (Homo sapiens, UniProt P15735)	ATP probe binding, KiNativ profiling, measured: Lys1 probe site	THP-1 cell lysate	–	–	> 5 µM
COc1ccc(C[C@H](NC(=O)[C@H](C)NC(=O)CN2CCOCC2)C(=O)N[C@@H](CCC2CCCCC2)C(=O)[C@@]2(C)CO2)cc1	PSMB5	inhibitor, competition	RPMI-8226	–	–	> 10 µM
Cc1ccc(-c2cc(C(F)(F)F)nn2-c2ccc(S(N)(=O)=O)cc2)cc1	AR	–	human cells	–	–	8.2 µM
c1ccc(Oc2ccc(Nc3ccc4ncc(OCC5CCNCC5)nc4c3)cc2)cc1	Protein AF-9 with AF4	AlphaScreen	–	–	–	1.5 ± 0.31 µM
Cc1ncc(C(=O)N[C@H](C(=O)N[C@@H](CC(C)C)C(=O)N[C@H](/C=C/S(C)(=O)=O)Cc2ccc(CN)cc2)C2CCCCC2)s1	PSMB5	competitive ABPP	Raji cell lysate	–	–	2.24 µM
O=C(O)c1ccc2nc(-c3ccc(OCCC(O)COc4ccc(-c5nc6ccc(C(=O)O)cc6[nH]5)cc4Br)c(Br)c3)[nH]c2c1 (stereo not shown)	Dihydrofolate reductase type 2	enzyme activity	–	pH 7	–	83 ± 22 µM
COc1ccc([N+](=O)[O-])cc1C(=O)Nc1ccc(OCCF)cc1	Peroxisome proliferator-activated receptor gamma, with RXR (PPARG, Homo sapiens, UniProt P37231)	reporter gene, antagonist, PPRE-TK-luciferase	transfected HepG2	24 h, added: GW1929	–	> 2 µM

Excerpt of the above:
Compound	target	test	system	setting	how to read	IC50
CN1CCN(CCCOc2ccc(-c3nc4ccc(C(=O)NCc5ccccc5)cc4[nH]3)cc2)CC1	Dihydrofolate reductase type 2	enzyme activity	–	pH 7	–	> 500 µM
CC(C)C[C@H](NC(=O)[C@H](CCc1ccccc1)NC(=O)CN1CCOCC1)C(=O)N[C@@H](Cc1ccccc1)C(=O)N[C@@H](CC(C)C)C(=O)[C@@]1(C)CO1	Proteasome subunit beta type-9 (Mus musculus, UniProt P28076)	proteasome subunit activity	Ba/F3 BCR-ABL1 T315I	1 h pulse	–	0.243 ± 0.0531 µM
O=C(Nc1ccn(Cc2ccc(O)cc2C(F)(F)F)n1)c1c(F)cccc1F	P2X purinoceptor 7 (P2rx7, Rattus norvegicus, UniProt Q64663)	antagonist	–	–	–	> 10 µM
